Experimental data gathered from unrelated publications.
Several values in a cell are separate wells, animals, samples, runs or records. ± marks the error that the study gave.
UniProt D0VWV4, sequence (whole entry, looked up): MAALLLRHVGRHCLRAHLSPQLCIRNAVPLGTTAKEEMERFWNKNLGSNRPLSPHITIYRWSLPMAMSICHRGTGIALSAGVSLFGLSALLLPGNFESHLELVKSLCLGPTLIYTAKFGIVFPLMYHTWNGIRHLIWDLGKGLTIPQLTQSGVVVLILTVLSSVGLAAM
UniProt P27361, sequence (whole entry, looked up): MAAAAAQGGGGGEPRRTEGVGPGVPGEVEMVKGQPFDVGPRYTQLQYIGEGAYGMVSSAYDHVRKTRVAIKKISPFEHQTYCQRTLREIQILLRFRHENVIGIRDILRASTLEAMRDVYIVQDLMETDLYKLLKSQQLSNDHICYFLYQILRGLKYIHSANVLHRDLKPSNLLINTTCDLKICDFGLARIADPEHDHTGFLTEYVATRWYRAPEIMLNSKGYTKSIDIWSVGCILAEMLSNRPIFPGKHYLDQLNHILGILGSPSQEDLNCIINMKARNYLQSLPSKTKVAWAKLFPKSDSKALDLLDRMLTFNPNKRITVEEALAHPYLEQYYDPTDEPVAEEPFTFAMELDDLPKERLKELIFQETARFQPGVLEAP
UniProt P06276, sequence (whole entry, looked up): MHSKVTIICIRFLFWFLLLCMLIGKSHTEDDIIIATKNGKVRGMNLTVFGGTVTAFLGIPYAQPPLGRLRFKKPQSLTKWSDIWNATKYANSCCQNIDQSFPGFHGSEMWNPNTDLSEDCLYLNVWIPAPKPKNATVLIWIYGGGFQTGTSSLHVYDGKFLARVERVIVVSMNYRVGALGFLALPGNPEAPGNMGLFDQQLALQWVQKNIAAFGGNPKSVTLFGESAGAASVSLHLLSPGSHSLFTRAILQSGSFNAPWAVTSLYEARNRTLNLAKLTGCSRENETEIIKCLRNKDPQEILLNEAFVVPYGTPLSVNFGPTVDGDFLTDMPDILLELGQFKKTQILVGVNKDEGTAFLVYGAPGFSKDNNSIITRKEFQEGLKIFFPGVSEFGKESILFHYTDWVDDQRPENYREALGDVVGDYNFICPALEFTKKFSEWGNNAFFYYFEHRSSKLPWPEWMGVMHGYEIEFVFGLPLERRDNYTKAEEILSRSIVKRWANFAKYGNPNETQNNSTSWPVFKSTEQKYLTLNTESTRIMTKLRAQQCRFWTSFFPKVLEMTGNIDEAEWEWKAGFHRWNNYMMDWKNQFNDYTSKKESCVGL
UniProt Q007T0, sequence (whole entry, looked up): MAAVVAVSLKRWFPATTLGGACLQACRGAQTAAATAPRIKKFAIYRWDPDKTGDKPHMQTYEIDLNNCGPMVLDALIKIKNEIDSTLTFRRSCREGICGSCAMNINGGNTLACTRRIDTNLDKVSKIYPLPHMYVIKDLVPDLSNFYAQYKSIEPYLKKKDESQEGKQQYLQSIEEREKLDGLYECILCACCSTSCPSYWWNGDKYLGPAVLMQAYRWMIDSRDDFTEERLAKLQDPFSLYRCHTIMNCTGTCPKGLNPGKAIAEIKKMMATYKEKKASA
UniProt P43251, sequence (whole entry, looked up): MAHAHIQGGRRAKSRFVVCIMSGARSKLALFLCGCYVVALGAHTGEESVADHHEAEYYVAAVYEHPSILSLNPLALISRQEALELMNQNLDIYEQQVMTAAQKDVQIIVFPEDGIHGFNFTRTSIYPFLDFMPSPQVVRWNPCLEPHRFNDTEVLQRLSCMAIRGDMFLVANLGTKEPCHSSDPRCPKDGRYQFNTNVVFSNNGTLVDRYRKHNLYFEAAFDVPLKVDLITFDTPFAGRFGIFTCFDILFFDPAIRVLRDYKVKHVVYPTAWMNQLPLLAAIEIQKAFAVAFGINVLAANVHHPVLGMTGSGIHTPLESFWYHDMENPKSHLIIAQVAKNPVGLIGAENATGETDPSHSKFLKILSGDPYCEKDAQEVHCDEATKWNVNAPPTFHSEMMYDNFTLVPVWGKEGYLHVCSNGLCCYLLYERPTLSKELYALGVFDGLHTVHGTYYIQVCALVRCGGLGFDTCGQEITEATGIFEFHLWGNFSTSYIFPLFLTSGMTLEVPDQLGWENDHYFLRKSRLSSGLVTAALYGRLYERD
UniProt A5GZW8, sequence (whole entry, looked up): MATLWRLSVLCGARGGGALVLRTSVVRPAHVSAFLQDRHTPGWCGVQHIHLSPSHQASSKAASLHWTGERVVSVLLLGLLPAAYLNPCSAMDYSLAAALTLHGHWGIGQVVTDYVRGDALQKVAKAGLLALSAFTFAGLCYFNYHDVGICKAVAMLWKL
UniProt P81908, sequence (whole entry, looked up): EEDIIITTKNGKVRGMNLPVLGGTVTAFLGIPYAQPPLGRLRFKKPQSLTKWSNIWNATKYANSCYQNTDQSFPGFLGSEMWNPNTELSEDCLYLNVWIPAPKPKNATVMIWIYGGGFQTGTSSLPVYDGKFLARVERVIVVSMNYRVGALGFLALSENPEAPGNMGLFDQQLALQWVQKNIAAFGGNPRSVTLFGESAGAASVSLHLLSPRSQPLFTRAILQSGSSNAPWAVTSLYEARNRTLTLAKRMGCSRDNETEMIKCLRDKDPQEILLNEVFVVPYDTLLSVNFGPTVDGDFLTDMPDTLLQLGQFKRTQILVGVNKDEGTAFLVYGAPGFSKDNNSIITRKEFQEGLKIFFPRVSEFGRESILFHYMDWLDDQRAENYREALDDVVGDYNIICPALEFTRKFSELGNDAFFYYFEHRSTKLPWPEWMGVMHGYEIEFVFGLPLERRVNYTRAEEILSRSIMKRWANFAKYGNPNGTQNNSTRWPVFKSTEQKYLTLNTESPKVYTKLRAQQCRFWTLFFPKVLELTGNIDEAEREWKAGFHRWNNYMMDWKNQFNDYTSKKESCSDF
UniProt O43570, sequence (whole entry, looked up): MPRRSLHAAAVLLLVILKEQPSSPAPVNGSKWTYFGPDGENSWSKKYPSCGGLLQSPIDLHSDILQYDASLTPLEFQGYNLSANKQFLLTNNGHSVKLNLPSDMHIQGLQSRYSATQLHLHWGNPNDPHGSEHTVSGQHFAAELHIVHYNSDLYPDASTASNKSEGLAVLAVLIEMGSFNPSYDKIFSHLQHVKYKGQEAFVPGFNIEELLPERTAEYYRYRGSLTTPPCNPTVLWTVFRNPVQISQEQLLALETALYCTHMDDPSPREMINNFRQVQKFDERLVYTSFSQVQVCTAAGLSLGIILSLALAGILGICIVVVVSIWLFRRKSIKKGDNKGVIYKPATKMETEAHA
UniProt P04843, sequence (whole entry, looked up): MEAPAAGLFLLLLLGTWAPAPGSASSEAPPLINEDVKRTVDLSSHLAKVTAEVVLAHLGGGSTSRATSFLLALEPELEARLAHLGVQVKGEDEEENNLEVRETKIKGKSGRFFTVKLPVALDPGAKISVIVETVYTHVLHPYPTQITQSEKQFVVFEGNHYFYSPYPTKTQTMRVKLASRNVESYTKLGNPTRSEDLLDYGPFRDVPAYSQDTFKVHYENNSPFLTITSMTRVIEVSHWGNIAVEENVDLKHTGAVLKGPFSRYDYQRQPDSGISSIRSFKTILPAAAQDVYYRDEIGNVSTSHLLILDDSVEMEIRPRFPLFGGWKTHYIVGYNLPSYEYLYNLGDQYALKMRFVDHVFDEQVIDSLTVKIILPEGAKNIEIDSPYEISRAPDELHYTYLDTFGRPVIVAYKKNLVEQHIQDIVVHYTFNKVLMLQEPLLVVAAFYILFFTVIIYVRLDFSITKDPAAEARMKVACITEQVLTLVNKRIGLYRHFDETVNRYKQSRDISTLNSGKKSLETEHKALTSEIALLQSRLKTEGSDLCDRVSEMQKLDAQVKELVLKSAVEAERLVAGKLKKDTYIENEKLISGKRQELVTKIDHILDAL
UniProt P35408, sequence (whole entry, looked up): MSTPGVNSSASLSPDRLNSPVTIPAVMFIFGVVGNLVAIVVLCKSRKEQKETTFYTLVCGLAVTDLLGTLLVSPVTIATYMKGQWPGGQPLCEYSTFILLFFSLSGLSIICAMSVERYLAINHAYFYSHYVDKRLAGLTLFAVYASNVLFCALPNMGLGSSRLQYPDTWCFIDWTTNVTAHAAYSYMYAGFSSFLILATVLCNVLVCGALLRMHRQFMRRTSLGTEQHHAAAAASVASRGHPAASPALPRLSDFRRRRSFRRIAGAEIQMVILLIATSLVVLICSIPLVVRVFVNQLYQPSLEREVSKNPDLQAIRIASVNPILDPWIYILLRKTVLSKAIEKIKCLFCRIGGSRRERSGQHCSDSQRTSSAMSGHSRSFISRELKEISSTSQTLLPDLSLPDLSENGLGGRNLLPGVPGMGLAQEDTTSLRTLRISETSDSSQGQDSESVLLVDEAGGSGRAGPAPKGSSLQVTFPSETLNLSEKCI
UniProt P46734, sequence (whole entry, looked up): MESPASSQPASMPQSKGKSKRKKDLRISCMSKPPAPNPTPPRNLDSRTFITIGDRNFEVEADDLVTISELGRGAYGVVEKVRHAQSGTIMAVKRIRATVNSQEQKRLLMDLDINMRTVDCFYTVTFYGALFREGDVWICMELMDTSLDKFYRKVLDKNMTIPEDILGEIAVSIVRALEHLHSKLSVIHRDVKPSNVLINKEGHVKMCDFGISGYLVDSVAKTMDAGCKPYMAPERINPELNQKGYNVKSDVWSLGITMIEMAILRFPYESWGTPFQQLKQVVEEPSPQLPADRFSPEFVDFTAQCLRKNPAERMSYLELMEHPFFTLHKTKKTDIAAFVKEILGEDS
UniProt P09104, sequence (whole entry, looked up): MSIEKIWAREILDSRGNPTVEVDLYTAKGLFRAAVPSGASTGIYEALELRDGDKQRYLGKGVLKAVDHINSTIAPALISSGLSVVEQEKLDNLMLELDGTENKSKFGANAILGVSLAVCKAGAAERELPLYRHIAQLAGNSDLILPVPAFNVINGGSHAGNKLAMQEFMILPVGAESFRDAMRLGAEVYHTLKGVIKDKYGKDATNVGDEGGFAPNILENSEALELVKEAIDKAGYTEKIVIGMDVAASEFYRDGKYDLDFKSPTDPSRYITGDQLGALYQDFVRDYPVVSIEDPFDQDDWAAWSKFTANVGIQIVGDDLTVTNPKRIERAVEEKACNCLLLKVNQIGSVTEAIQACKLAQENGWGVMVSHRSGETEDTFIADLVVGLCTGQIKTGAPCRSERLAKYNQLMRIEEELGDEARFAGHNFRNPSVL

CN(C(=O)n1cnc(-c2ccc[n+]([O-])c2)c1)C1CCCCC1  inhibition (Prostaglandin E2 receptor EP4 subtype (PTGER4, Homo sapiens, UniProt P35408); binding, measured: EP4; 10 µM, human, with: [3H]prostaglandin E2): 3%
O=C1C(P(=O)(O)O)CC(O)N1O (centres unmarked)  thermal shift (Gamma-enolase (ENO2, Homo sapiens, UniProt P09104); recombinant protein; 25 µM, protein 225 nM): ~15 °C
O=c1cc(CSc2ccc(N=Cc3ccc(F)cc3)cc2)occ1O  fluorescence decrease (Alpha-glucosidase MAL12 (MAL12, Saccharomyces cerevisiae S288c, UniProt P53341); intrinsic fluorescence; 20 µM): ~52%
CC(CC1c2ccccc2CCc2ccccc21)CN(C)C (centres unmarked)  efficacy (Cholinesterase (BCHE, Homo sapiens, UniProt P06276); concentration not given, Triton): -75.8 ± 4.43%
Cc1cc(=O)oc2cc(OCCCC[Se]C#N)ccc12  selectivity ratio (Carbonic anhydrase 12 (CA12, Homo sapiens, UniProt O43570); stopped-flow CO2 hydration; relative to: Ki CA I over Ki CA XII): > 1940
CCCC(C(=O)O)c1c(C)nc2ccc(Cl)cc2c1-c1ccccc1 (centres unmarked)  minimal concentration increasing Venus ratio (Gag-Pol polyprotein, integrase (gag-pol, Human immunodeficiency virus 1, UniProt P12497); BiFC flow cytometry; HEK293T; relative to: DMSO): ≥ 5 µM
COc1ccc(N2C(=O)N(c3c(C)cccc3Cl)Cc3cnc(Nc4ccc(C5CCN(C)CC5)cc4OC)nc32)nc1  inhibition (Dual specificity mitogen-activated protein kinase kinase 3 (MAP2K3, Homo sapiens, UniProt P46734); kinase activity, inhibitor; 0.5 µM, MEK3): -16%
Oc1ccc(Cl)cc1Sc1cc(Cl)ccc1O  activity class (Cholinesterase (BCHE, Homo sapiens, UniProt P06276); biochemical; concentration not given): inactive
CCOC(=O)COc1ccc2c(=O)c3ccccc3oc2c1  reaction velocity (Acetylcholinesterase (ache, Electrophorus electricus, UniProt O42275); enzyme activity; 0.42 µM, with: substrate 1.73 mM; higher = faster reaction): 0.0019 a.u.
Clc1ccc(Cl)c(-c2ccccc2Cl)c1  maximum activity (Androgen receptor (AR, Homo sapiens, UniProt P10275); reporter gene, antagonist; 40 µM, with: DHT 2 nM; relative to: DHT 2 nM): 28%
Cc1onc(-c2c(Cl)cccc2Cl)c1C(=O)N[C@@H]1C(=O)N2[C@@H]1SC(C)(C)[C@@H]2C(=O)O  kinact/KI (Penicillin-binding protein 2B (Streptococcus pneumoniae, UniProt P0A3M6); inhibitor): 3300 ± 620 M⁻¹ s⁻¹
CC[C@@H](C)[C@@H](NC(=O)[C@@H](Cc1ccc(O)cc1)NC(=O)[C@H]1CCCN1C(=O)[C@@H](CCCNC(=N)N)NC(=O)[C@H](N)Cc1c[nH]cn1)C(=O)N[C@H](C)C(=O)N[C@H](Cc1c[nH]cn1)C(=O)N[C@H](CCCNC(=N)N)C(=O)N[C@H](CCCCNC(=O)c1cccc(S(=O)(=O)F)c1)C(=O)N[C@H](Cc1ccc(O)cc1)C(=O)N[C@H](CO)C(=O)N[C@H](Cc1ccccc1)C(N)=O  surface TFRC expression (Transferrin receptor protein 1 (Tfrc, Mus musculus, UniProt Q62351); flow cytometry; DC2.4; 24 h, pH 6, replicate 1, unit not given; relative to: 0 h): 0.416
CC1=C(C)C(=O)C(C)=C(C)C1=O  P+QA− recombination rate (Reaction center protein M chain, QA site (pufM, Cereibacter sphaeroides, UniProt P0C0Y9); charge recombination; Rhodobacter sphaeroides, LDAO detergent solution; pH 7.8, 298 K, quinone reconstituted in QA site): 10 s⁻¹
CCN(C)C(=O)Oc1ccc(CCC(=O)N2CCN(Cc3ccccc3)CC2)cc1OC  selectivity ratio (Cholinesterase (BCHE, Equus caballus, UniProt P81908); Ellman; equine serum BuChE; relative to: AChE IC50 over BuChE IC50): 1.1
Oc1ccc(/C=C/c2cc(O)cc(O)c2)cc1  ∆G (O-methyltransferase (Sorghum bicolor, UniProt A0A1B6PFV1, W279A); isothermal titration calorimetry; apo protein): -6.12 kcal/mol
CCCN(CCc1cccs1)[C@H]1CCc2c(O)cccc2C1  efficacy (Cholinesterase (BCHE, Homo sapiens, UniProt P06276); concentration not given, Triton): -94.3 ± 6.96%
Nc1ncc(-c2nc(N3CCOCC3)nc(N3CCOCC3)n2)c(C(F)F)n1  remaining binding (Serine/threonine-protein kinase 38-like (STK38L, Homo sapiens, UniProt Q9Y2H1); KINOMEscan; 10 µM): 72%
CCN(CC)CCNC(=O)c1cc(Br)c(N)cc1OC  efficacy (Cholinesterase (BCHE, Homo sapiens, UniProt P06276); concentration not given, Triton): -98.6 ± 8.98%
O=C(O)C(F)(F)OC(F)(F)C(F)(F)OC(F)(F)C(F)(F)OC(F)(F)C(F)(F)C(F)(F)C(F)(F)F  fold change (Fatty acid-binding protein, brain (Homo sapiens, UniProt O15540); binding, affinity selection mass spectrometry; 100 nM, pooled screen; relative to: other proteins): 54
C=C(CN(C(=O)c1c(C(F)F)nn(C)c1F)C1CC1)c1ccc(Cl)cc1Cl  reaction velocity (SDHD/SDHC/SDHB (Sus scrofa, UniProt A5GZW8+D0VWV4+Q007T0); enzyme activity, inhibitor, DCIP reduction; pig; 0.06 µM, with: DCIP 160 µM): 0.0295 µM/s and 0.0309 µM/s and 0.0307 µM/s
COc1cc(N)c(Cl)cc1C(=O)NC1CN2CCC1CC2 (centres unmarked)  log2 fold change (GPR101 (Homo sapiens, UniProt Q96P66); β-arrestin recruitment, TANGO luminescence; concentration not given; relative to: basal luminescence): -0.027
CC1(C)CC(=O)c2c(nc3c(c(C#N)cn3Cc3ccccc3)c2-c2ccc(F)cc2)C1  IC50 fold change (Gag-Pol polyprotein, reverse transcriptase (gag-pol, Human immunodeficiency virus type 1 group M subtype B, UniProt P04585); DNA polymerase activity, inhibitor, FRET; relative to: mutant over wild type RT): 3.9
COC(=O)[C@@]1(O)C[C@H]2O[C@]1(C)n1c3ccccc3c3c4c(c5c6ccccc6n2c5c31)C(=O)NC4  kinase activity (Mitogen-activated protein kinase 3 (MAPK3, Homo sapiens, UniProt P27361); ADP-Glo; 251 nM, with: MBP substrate): 41.1% and 22.6% and 47%
C[C@@H](O)[C@H](N)C(=O)O  Km (ilvA (Escherichia coli, UniProt P04968, F352A); 2-ketobutyrate formation, substrate, steady-state kinetics): 5.8 mM
CC(Oc1ccc(Cl)cc1Cl)C(=O)O (racemic)  umami receptor response (T1R1/T1R3 (Homo sapiens, UniProt Q7RTX0+Q7RTX1); luminescence; cells stably expressing T1R1/T1R3; concentration not given, with: MSG): no effect
CC[C@H](C)[C@H]1O[C@]2(C=C[C@@H]1C)C[C@@H]1C[C@@H](C/C=C(\C)[C@@H](O[C@H]3C[C@H](OC)[C@@H](O[C@H]4C[C@H](OC)[C@@H](O)[C@H](C)O4)[C@H](C)O3)[C@@H](C)/C=C/C=C3\CO[C@@H]4[C@H](O)C(C)=C[C@@H](C(=O)O1)[C@]34O)O2  agonist score (GABA-A receptor; alpha-1/beta-2/gamma-2 (Rattus norvegicus, UniProt P18508+P62813+P63138); membrane potential, agonist, QP-DHM fluorescence; HEK293 expressing GABAA; 10 µM; relative to: 10 µM GABA, direction not given): 0.86
O=C1[O][Pt]2([NH][C@@H]3CCCC[C@H]3[NH]2)[O]C1=O  EC50 (Neuronal acetylcholine receptor subunit alpha-7 (Chrna7, Rattus norvegicus, UniProt Q05941); ion current, positive allosteric modulator; with: nicotine 25 µM): inactive
O=C(c1ccc(Cl)cc1)N1CCN2C(=O)N(OC(=O)N3CCOc4ccccc43)C(=O)C2C1 (centres unmarked)  peptide ratio (Biotinidase (Homo sapiens, UniProt P43251); MS-based ABPP; SW-620 conditioned medium; 10 µM, 1 h, 37 °C; relative to: compound over DMSO, lower = more inhibition): 2.1 and 1.41 and 1.42 and 2.18
O=C(Nc1cnccc1Cl)N1CCN(Cc2ccc3c(c2)OC(F)(F)O3)CC1  inhibition of binding (D(3) dopamine receptor (DRD3, Homo sapiens, UniProt P35462); radioligand binding; 10 µM, with: [3H]spiperone): 17%
CN1CCN(c2cc(-c3ccncc3)c(-c3ccc4ccccc4c3)nn2)CC1  inhibition (Cysteinyl leukotriene receptor 1 (CYSLTR1, Homo sapiens, UniProt Q9Y271); antagonist, FLIPR; 10 µM): 3.1%
C#C[C@H](C)NCC(=O)O  KI inactivation (putA, PRODH domain (Sinorhizobium meliloti, UniProt F7X6I3, del84-189); inactivator): 9.1 ± 5.2 mM
C[C@H]1CN(c2n[nH]c3nc(N[C@H]4CC[C@H](NS(=O)(=O)CCC(F)(F)F)CC4)ncc23)CCO1  remaining binding (Dolichyl-diphosphooligosaccharide--protein glycosyltransferase subunit 1 (Homo sapiens, UniProt P04843); Kinobeads competition, measured: RPN1; 0.032 µM, unit not given; relative to: vehicle): 1.03
COc1cc(Br)cc(Br)c1Oc1cc(Br)cc(Br)c1O  Vmax/Km (Sulfotransferase 1B1 (SULT1B1, Homo sapiens, UniProt O43704); sulfonation, substrate): 4860 µL/min/mg
CC(=O)N[C@@H](C)C(=O)N1CCC[C@H]1C(=O)N[C@@H](CC(C)C)C(=O)N[C@H](C(=O)N[C@@H](CCCNC(=N)N)C(=O)NCC(=O)N[C@@H](CO)C(=O)N[C@@H](CS)C(=O)N[C@@H](CCCNC(=N)N)C(=O)N[C@@H](CCCCN)C(=O)N[C@@H](CCCNC(=N)N)C(=O)N[C@@H](CC(N)=O)C(=O)N[C@@H](CCCNC(=N)N)C(=O)N[C@@H](CO)C(=O)N1CCC[C@H]1C(=O)N[C@@H](CCC(=O)O)C(=O)N[C@@H](CCCNC(=N)N)C(N)=O)[C@@H](C)O  binding stoichiometry (WD repeat-containing protein 5 (WDR5, Homo sapiens, UniProt P61964); isothermal titration calorimetry; concentration not given, pH 7.0, 20 °C): 1.23
CCCCC/C=C\C/C=C\C/C=C\C/C=C\CCCC(=O)NCCO  Hill coefficient (Transient receptor potential cation channel subfamily V member 1 (Trpv1, Mus musculus, UniProt Q704Y3); ion current, agonist, whole-cell patch clamp; HEK293): 3.84 ± 0.88
COc1cc(CCC(=O)N2CCC(Cc3ccccc3)CC2)ccc1OC(=O)N(c1ccccc1)c1ccccc1  selectivity ratio (Cholinesterase (BCHE, Equus caballus, UniProt P81908); Ellman; equine serum BuChE; relative to: AChE IC50 over BuChE IC50): 0.4
[2H]c1c([2H])c([C@]2([2H])CCCN2C(=O)C(C)(C)Oc2ccc3cn[nH]c3c2)c([2H])c([2H])c1C([2H])([2H])[2H]  remaining binding (Tyrosine-protein kinase Fer (FER, Homo sapiens, UniProt P16591); KINOMEscan; 1 µM; relative to: DMSO control): 80%
O=C(Nc1cccnn1)N1CCC(=Cc2cccc(Oc3ccc(C(F)(F)F)cn3)c2)CC1  inhibition of binding (5-hydroxytryptamine receptor 4 (HTR4, Cavia porcellus, UniProt O70528); radioligand binding; 10 µM, with: [3H]GR-113808): 4%

Excerpt of the above:
CCCN(CCc1cccs1)[C@H]1CCc2c(O)cccc2C1  efficacy (Cholinesterase (BCHE, Homo sapiens, UniProt P06276); concentration not given, Triton): -94.3 ± 6.96%
COc1cc(Br)cc(Br)c1Oc1cc(Br)cc(Br)c1O  Vmax/Km (Sulfotransferase 1B1 (SULT1B1, Homo sapiens, UniProt O43704); sulfonation, substrate): 4860 µL/min/mg
CCCCC/C=C\C/C=C\C/C=C\C/C=C\CCCC(=O)NCCO  Hill coefficient (Transient receptor potential cation channel subfamily V member 1 (Trpv1, Mus musculus, UniProt Q704Y3); ion current, agonist, whole-cell patch clamp; HEK293): 3.84 ± 0.88
